Assay results collected from several papers.
Each line is one published result; not all experiments were run side by side. Several values in a cell are separate wells, animals, samples, runs or records. Numbers after ± are the reported error.

| SMILES | assay | system | conditions | scale | measurement | value |
| --- | --- | --- | --- | --- | --- | --- |
| C=C1CC[C@H](OCCCNC(=O)CCOCCOCCOCCOCCOCCOCCOCCOCCOCCOCCOCCOCCOCCOCCOCCOCCOCCOCCOCCOCCOCCOCCOCCOCCOCCOCCOCCOCCOCCOCCOCCOCCOCCOCCOCCOCCNC(=O)CCN2C(=O)CC(SC[C@H](NC(=O)[C@H](CCCNC(=N)N)NC(=O)[C@@H]3CCCN3C(=O)[C@H](CCC(N)=O)NC(=O)[C@H](CC(C)C)NC(=O)[C@H](CCCCN)NC(=O)[C@H](C)NC(=O)[C@@H]3CCCN3C(=O)[C@@H]3CCCN3C(=O)[C@H](CCCCN)NC(=O)[C@H](CCCCN)NC(=O)[C@H](CO)NC(=O)[C@H](CCC(=O)O)NC(=O)[C@H](CCCCN)NC(=O)[C@H](CCCNC(=N)N)NC(=O)[C@H](CCC(N)=O)NC(=O)[C@H](CCC(N)=O)NC(=O)[C@@H](NC(=O)[C@H](CCCNC(=N)N)NC(=O)[C@H](CCC(N)=O)NC(=O)[C@H](Cc3c[nH]cn3)NC(=O)[C@H](CCC(=O)O)NC(=O)[C@@H]3CCCN3C(=O)[C@H](CO)NC(=O)[C@H](CC(C)C)NC(=O)[C@H](Cc3ccccc3)NC(=O)[C@H](CNC(=O)CCCCCCC)NC(=O)[C@H](CO)NC(=O)CN)C(C)C)C(=O)O)C2=O)C/C1=C/C=C1\CCC[C@]2(C)[C@@H]([C@H](C)CCCC(C)(C)O)CC[C@@H]12 (some centres unmarked) | immunohistochemistry, refers to: MyHC IIA, IIX, IIB fibres | mice, tibialis anterior | daily or every other day |  | muscle fibre type percentage | no effect |
| CC(C)=CC1NCCc2cc(O)c(O)cc21 (centres unmarked) | ferrozine | cell-free | 100 µM, DMSO solvent |  | Fe2+ chelation | 94.97 ± 0.36% |
| OC(CCN1CCCCC1)(c1ccccc1)C1CC2C=CC1C2 (centres unmarked) | resting-state EEG | healthy elderly humans | oral, 4 mg, eyes closed, LS mean |  | EEG power, gamma, Fz-Cz | 0.5 µV² |
| C=CCn1c(=O)c2cnc(Nc3ccc(N4CCN(C)CC4)cc3)nc2n1-c1ccc2c(n1)[C@@](O)(CC)CC2 |  | A2780 xenograft, BALB/c nude mice | oral, 80 mg/kg once daily x 8, day 9 | relative to: vehicle | tumour growth inhibition | 20.2% |
| COc1cc(Nc2ncc3c(n2)-c2ccc(Cl)cc2C(c2c(F)cccc2OC)=NC3)ccc1C(=O)O |  | mouse, NB-EBc1 neuroblastoma xenograft | 20.8 mg/kg | direction not given | median response score | 10 |
| CC(C)NCC(O)c1ccc(O)c(O)c1 (centres unmarked) |  | ventricular cardiomyocytes, C57BL/6 mouse | dose not given, 0.796 s |  | sarcomere length | 1.65 µm |
| C[C@@H](O)CCOC(=O)C[C@@H](C)O | refers to: C12-OH/C10-DC acylcarnitine | human, plasma | 60 min, log2-transformed values |  | metabolite level | -6.8 ± 0.61 µmol/L |
| COc1cc2cc(-c3ccc(CC(=O)Nc4cc(C(C)(C)C(F)(F)F)no4)cn3)cnc2cc1OC |  | human RET-mutant medullary thyroid cancer | 75 mg, phase I, RECIST 1.1 |  | stable disease as best response | 71% |
| C[C@H](Oc1ccc(Br)cc1-c1ccon1)C(=O)O | first response peak | human, tibialis anterior muscle | 1200 mg, 30 Hz, single ascending dose |  | difference from placebo | 11.6% |
| CN[C@@H]1COc2c(S(=O)(=O)NC(=O)Nc3c4c(cc5c3CCC5)CCC4)cnn2C1 | refers to: IL-18 | human participants, whole blood ex vivo | 300 mg twice daily, multiple doses, 1 h, IL-18, circulating, adjusted for, together with: LPS/ATP | relative to: baseline | inhibition | 94.2% |
| O=c1cc(-c2ccccc2)oc2cc(O)c(O)c(O)c12 | Oil Red O staining | ApoE-/- mouse on high-fat diet | oral gavage, 20 doses every three days, 72 h |  | aortic arch plaque area | 7.76 ± 0.85% |
| Cn1cc([C@H]2C[C@H]3CSC(N)=N[C@@]3(c3ccc(F)cc3F)CO2)cn1 | refers to: Aβx-40 | wild-type mouse, brain | subcutaneous, 3 mg/kg, 3 h |  | Aβ40 level | 2.87 ng/g |
| CCOC(=O)c1c(NC(=O)CNC(C)C)sc2c1CCCCC2 |  | APP J20 mice | intraperitoneal, 75 mg/kg, first 2 h, NREM sleep |  | epileptiform spike rate | 58.2 ± 11.2 spikes/h |
| CC(C)[C@H](C(=O)Nc1ccc(C(=O)NO)cc1)c1ccccc1 | volumetric MRI | human, left schwannoma | dose not given, day 809 |  | tumour volume | 0.111 cm3 |
| C[C@H]1[C@H](OC(=O)CCC(=O)O)O[C@@H]2O[C@@]3(C)CC[C@H]4[C@H](C)CC[C@@H]1[C@@]24OO3 |  | MOLM-13 xenograft mice | 100 mg/kg twice daily, 9 days |  | median survival | 17 days |
| O=C(O)CNC(=O)Cc1ccccc1 |  | ventricular cardiomyocytes, C57BL/6 mouse | dose not given, 0.828 s |  | sarcomere length | 1.64 µm |
| CC(=O)Oc1cc2c(s1)CCN(C(C(=O)C1CC1)c1ccccc1F)C2 (centres unmarked) | platelet aggregation, light transmission aggregometry | human patients, platelet-rich plasma | dose not given, 2 h, together with: TRAP 5 µM |  | patients with IPA above 90% | 0% |
| Cc1n[nH]c2ccc(-c3cc(OC[C@@H](N)Cc4ccccc4)cnc3-c3ccoc3)cc12 | kinase binding, competitor, MIB/MS competition, refers to: TOR1 | Candida albicans cell lysate | 1 µM | relative to: DMSO | log2 fold change | 0.207 |
| COc1cc(C2NCCc3cc(O)c(O)cc32)cc(OC)c1O (centres unmarked) | ferrozine | cell-free | 100 µM, DMSO solvent |  | Fe2+ chelation | 92.85 ± 0.4% |
| O=C1Nc2cc3[nH]nc(-c4ccncc4)c3cc2CN1Cc1ccccc1 | RECIST v1.1 | human, relapsed or refractory advanced solid tumours | intravenous, 0.9 mg/kg, pooled schedules |  | stable disease, best response | 0% |
| O=c1cc(-c2ccc(O)cc2)oc2c([C@@H]3OC[C@H](O)[C@H](O)[C@H]3O)c(O)c([C@@H]3O[C@H](CO)[C@@H](O)[C@H](O)[C@H]3O)c(O)c12 | refers to: HW/TL, LV mass, LVPWd | HFpEF mice, AngII-induced | oral, 20 and 40 mg/kg/day |  | cardiac hypertrophy | decreased |
| NNC(=O)c1ccncc1 | ELISA | Mycobacterium marinum-infected mice, thymus | intraduodenal, 10 mg/kg three times daily, 3 days post infection |  | IL-1β level | 73.4 pg/mL and 74.1 pg/mL and 77.6 pg/mL |

| SMILES | assay | system | conditions | scale | measurement | value |
| --- | --- | --- | --- | --- | --- | --- |
| N#Cc1ccc2c(c1)[C@H]1CCCN(C(=O)c3ccc4[nH]cnc4c3)[C@H]1C2 |  | human clinical trial | oral, 240 mg once daily, at last treatment |  | cortisol level | 297 nmol/L |
| COc1ccc(Oc2cc(N(C)CCOc3ccc(CC4SC(=O)NC4=O)cc3)ncn2)cc1 (centres unmarked) |  | type 2 diabetes patients | 0.5 mg once daily, 12 weeks | relative to: baseline | total cholesterol reduction | 13.7 mg/dL |
| CCCCC1(CCCC)CN(c2ccccc2)c2cc(SC)c(OCC(=O)N[C@@H](C(=O)NCC(=O)O)c3ccccc3)cc2S(=O)(=O)C1 | refers to: 7α-hydroxy-4-cholesten-3-one | human, plasma | 10 mg once daily, day 2 |  | plasma C4 | 48.3 ng/mL |
| NC(=O)c1cnc2[nH]ccc2c1N[C@@H]1[C@@H]2CC3C[C@H]1C[C@@](O)(C3)C2 | flow cytometry, refers to: CD8+ effector memory T cells | Japanese healthy subjects, peripheral blood | oral, 10 mg twice daily, day 7 |  | change from baseline | -0.03% |
| CSCCNc1nc(SCCC(F)(F)F)nc2c1ncn2[C@@H]1O[C@H](COP(=O)(O)OP(=O)(O)C(Cl)(Cl)P(=O)(O)O)[C@@H](O)[C@H]1O | platelet aggregation, light transmittance aggregometry | human, platelet-rich plasma | dose not given, 15 min, IPA above 80 %, together with: TRAP 5 µM | relative to: patients | patients with IPA above threshold | 5.1% |
| CN(C(=O)n1cnc(-c2ccc[n+]([O-])c2)c1)C1CCCCC1 |  | mice, formalin paw test | 1 mg/kg, late phase, together with: anandamide 5 mg/kg i.p. | relative to: vehicle, direction not given | change in licking score | -77% |
| CO[C@H]1CC[C@H](N2C(=O)CNc3ncc(-c4ccc(C(C)(C)O)nc4)nc32)CC1 | flow cytometry | stimulated monocytes, human, blood | 60 mg single dose, 24 h, median | relative to: baseline | pAKT change from baseline | 1.4% |
| O=C(COc1ccc(Cl)cc1)NC12CC(c3nnc([C@H]4C[C@@H](OC(F)(F)F)C4)o3)(C1)C2 |  | healthy human, PBMC | 100 mg once daily, day 14, 4 h post-dose, median, together with: sodium arsenite ex vivo | relative to: baseline | ATF4 protein change | -64% |
| C[C@H]1C[C@H]2CSC(N)=N[C@@]2(c2nc(NC(=O)c3ccc(OC(F)F)cn3)cs2)CO1 |  | healthy adults, fed, plasma | oral, 200 mg single dose, 24 h | relative to: baseline, placebo-adjusted | total plasma Aβ change | -58.4% |
| COc1cccc2c(N3CCC(CCP(=O)(O)O)CC3)ncnc12 |  | mouse, EMT6 tumour, tumour | 50 mg/kg |  | duration of cGAMP increase | > 24 h |
| C=CC[C@@H]1/C=C(\C)C[C@H](C)C[C@H](OC)[C@H]2O[C@@](O)(C(=O)C(=O)N3CCCC[C@H]3C(=O)O[C@H](/C(C)=C/[C@@H]3CC[C@@H](O)[C@H](OC)C3)[C@H](C)[C@@H](O)CC1=O)[C@H](C)C[C@@H]2OC | qPCR, refers to: Egfr, Fxyd2, Nedd4l | Wistar Kyoto rats, male, kidney cortex | ip, 0.5 mg/kg/day, day 28 | relative to: vehicle | mRNA level | no effect |
| N#Cc1ccc2c(-c3ccncc3)c(-c3ccc(F)cc3)nn2c1 | kinase binding, competitor, MIB/MS competition, refers to: YPK1 | Candida albicans cell lysate | 100 nM | relative to: DMSO | log2 fold change | 0.106 |
| CC[C@@H]1[C@H](F)C(=O)N[C@@H]1COc1nccc2cc(C(N)=O)c(OC)cc12 | ATP-site probe binding, ActivX profiling, refers to: MST4, YSK1 | THP-1 cell lysate | 0.01 mM, Lys2 site |  | inhibition | 19.6% |
| Cn1cc(Nc2nccc(-c3ccc4c(c3)CN(C3COC3)CC[C@H]4NC(=O)c3cn(C(C)(C)C)nn3)n2)cn1 | refers to: NER Pathway | splenic B cells, mouse | in vivo, 30 mg/kg, IgD-activated B cells | relative to: vehicle, positive = activation | pathway activation z-score | -1.07 |
| C=CC(=O)Nc1cc(Nc2ncc(C(=O)OC(C)C)c(-c3cn(C)c4ccccc34)n2)c(OC)cc1N(C)CCN(C)C |  | EGFR-mutant NSCLC patients |  |  | responders with duration ≥ 6 months | 59% |
| COC[C@@H](c1ccc(C(F)(F)F)cc1)N1CCN(C2(C)CCN(C(=O)c3c(C)ncnc3C)CC2)C[C@@H]1C |  | human, HIV infected | dose not given, week 2, low Cmin subjects |  | HIV-1 RNA decrease | 0.76 log10 copies/mL |
| NCC(=O)Nc1cncc(-c2nn3c(=O)cc(N4CCNCC4)nc3s2)c1 | ADP-induced platelet aggregation, light transmission aggregometry | human, stable CAD on aspirin, platelets ex vivo | subcutaneous, 0.075 mg/kg, 15 min post-dose, together with: ADP 20 µM |  | inhibition | 88.9% |
| c1ccc(-c2n[nH]cc2-c2ccnc3ccccc23)nc1 | kinase binding, competitor, MIB/MS competition, refers to: KSP1 | Candida albicans cell lysate | 1 µM | relative to: DMSO | log2 fold change | 0.985 |
| N#Cc1ccc2c(c1)[C@H]1CCCN(C(=O)c3ccc4[nH]cnc4c3)[C@H]1C2 |  | T2DM patients with overweight or obesity, urine | oral, 160 mg, day 1, 0-24 h, multiple dosing, adjusted geometric mean | relative to: baseline day -1, -24-0 h | total urinary corticosteroid excretion | 156% |
| C[C@@H](NC(=O)N1C(=O)[C@H](Cc2ccnc(N)c2)[C@H]1C(=O)O)C1CCCCC1 |  | human | iv infusion, 0.6 mg/kg/h, 24 h | relative to: baseline | time to ACT Emax | 83.8 h |
| Cc1cc(-c2nc(C(=O)Nc3cc4oc(N5CCOCC5)nc4nc3N3CC[C@@H](O)C3)co2)ccn1 | immunohistochemistry, refers to: phospho-NF-κB p65 | mouse, intracranial A20 tumour | dose not given | relative to: total cells | pNF-κB p65 positive cells | 7.1% |
| Cc1nn(-c2nc3c(F)cc(F)cc3s2)c(O)c1C(c1ccc(C(F)(F)F)cc1)c1c(C)nn(-c2nc3c(F)cc(F)cc3s2)c1O | ELISA | mouse, cerulein-induced acute pancreatitis, serum | dose not given, 8 h |  | IL-6 level | 118 pg/mL and 117 pg/mL and 122 pg/mL and 95.6 pg/mL and 121 pg/mL and 111 pg/mL |
